Results gathered from unrelated publications.
Each numbered part is a random draw from the data of one study; scales do not carry over between parts.

Series 1 — technique: protein-binding microarray; molecule type: double-stranded DNA, one strand shown; medium: in vitro; tested at: not given; direction: higher = stronger binding
Target: Hepatocyte nuclear factor 3-beta, forkhead domain (FOXA2, Homo sapiens, UniProt Q9Y261, residues 142-269)
Setting: k-mer, scored over probes, only values ≥0.25
Target sequence (chain): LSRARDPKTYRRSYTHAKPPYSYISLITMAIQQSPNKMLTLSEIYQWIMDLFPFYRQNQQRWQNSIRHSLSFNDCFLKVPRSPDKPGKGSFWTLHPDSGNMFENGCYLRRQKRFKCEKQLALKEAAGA
Strand	E-score
GCATACAC	0.26
CACAATAC	0.265
CTGTATAC	0.379
CAACACAA	0.28
ACACATGA	0.323
ACACAACT	0.25
ATATAATG	0.292
TAAAGTAA	0.263
GTGTACAA	0.347

Series 2 — technique: protein binding microarray; molecule type: double-stranded DNA, one strand shown; medium: in vitro; tested at: not given; relative to: not given; direction: higher = stronger binding
Target: Histone acetyltransferase KAT6A, winged helix 1, GST fusion (KAT6A, Homo sapiens, UniProt Q92794, residues 1-85)
Setting: 8-mer, flanks averaged, mean of 2 arrays, mostly near background
Residues (chain): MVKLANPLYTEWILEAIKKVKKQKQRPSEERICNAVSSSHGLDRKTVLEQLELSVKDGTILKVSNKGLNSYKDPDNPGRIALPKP
Strand	E-score
ACAAAAAC	-0.00363
CATTCGCC	0.188
TAACTAGA	0.0901
CCCATCGC	0.16
CGATGGAA	-0.0593
GGACACAC	0.11

Series 3 — technique: universal PBM; molecule type: double-stranded DNA, one strand shown; medium: in vitro; tested at: not given; direction: higher = stronger binding
Target: Sal-like protein 4, full length isoform B (SALL4, Homo sapiens, UniProt Q9UJQ4-2, residues 1-616)
Setting: 8-mer, flanks averaged, mean of replicates
Strand	E-score
AATGAAGG	0.0911
ATTCGTTC	0.14
ATGTTGTG	0.19
ACAGCTCT	-0.13
ACGTGAAG	0.104
AGAGCACC	-0.326
ATTGCGGC	-0.0755

Single results of other studies
Molecule	target	test	test system	conditions	how to read	endpoint	value
PhoQ, residues 284 288 289 292 302 303 NLMGRA	PhoP, residues 12 14 15 18 19 GHCSL (Escherichia coli, UniProt P23836)	Sort-seq, refers to: YFP reporter	E. coli	PhoQ-PhoP variant library, with: 10 µM Mg2+	relative to: high Mg2+ state, higher = stronger signaling	fold induction	16.8

Some of these lines once more (series 1):
Strand	E-score
GCATACAC	0.26
ATATAATG	0.292
